{"data": "Experimental data of several laboratories", "note": "Protocols differ between the studies behind these lines. Numbers after ± are the reported error."}
{"Molecule": "CC[C@H](C)[C@H](NC(=O)[C@H](CCCCN)NC(=O)[C@H](CCC(=O)O)NC(=O)[C@H](CCCCN)NC(=O)[C@H](CO)NC(=O)[C@H](CCCCN)NC(=O)[C@H](CCCNC(=N)N)NC(=O)[C@H](Cc1ccccc1)NC(=O)[C@H](Cc1ccccc1)NC(=O)[C@H](CC(=O)O)NC(=O)CNC(=O)[C@H](CC(C)C)NC(=O)[C@@H](N)CC(C)C)C(=O)NCC(=O)N[C@@H](CCCCN)C(=O)N[C@@H](CCC(=O)O)C(=O)N[C@@H](Cc1ccccc1)C(=O)N[C@@H](CCCCN)C(=O)N[C@@H](CCCNC(=N)N)C(=O)N[C@H](C(=O)N[C@H](C(=O)N[C@@H](CCC(N)=O)C(=O)N[C@@H](CCCNC(=N)N)C(=O)N[C@H](C(=O)N[C@@H](CCCCN)C(=O)N[C@@H](CC(=O)O)C(=O)N[C@@H](Cc1ccccc1)C(=O)N[C@@H](CC(C)C)C(=O)N[C@@H](CCCNC(=N)N)C(=O)N[C@@H](CC(N)=O)C(=O)N[C@@H](CC(C)C)C(=O)N[C@H](C(=O)N1CCC[C@H]1C(=O)N[C@@H](CCCNC(=N)N)C(=O)N[C@H](C(=O)N[C@@H](CCC(=O)O)C(=O)N[C@@H](CO)C(=O)O)[C@@H](C)O)C(C)C)[C@@H](C)CC)C(C)C)[C@@H](C)CC", "organism": "Staphylococcus aureus", "system": "JE2 SAUSA300_1255 mprF transposon mutant", "setting": "12.5% TSB", "scale": "relative to: wild type over mutant", "endpoint": "MIC ratio", "value": "2 fold"}
{"Molecule": "TDVDHVFLRF-OH (C-acid)", "organism": "Drosophila melanogaster", "assay": "gut contraction", "system": "peptide, adult gut", "setting": "1 µM, within 10 min", "scale": "relative to: DMS effect", "endpoint": "inhibition", "value": "71%"}
{"Molecule": "O=C(CN1c2c(n[nH]c2-c2cccc(Cl)c2)-c2ccccc2S1(=O)=O)NN=Cc1c(Cl)cccc1Cl", "organism": "HIV-1", "assay": "viral replication", "system": "PBMC", "endpoint": "EC90", "value": "41.5 µM"}
{"Molecule": "Cc1ccccc1-c1nc(CN2CCC(C(=O)NCCCN3CCCC3)CC2)c(C)o1", "organism": "Hepatitis C virus", "assay": "HCV infection, Gaussia luciferase reporter", "system": "Huh7.5.1 reporter cells", "scale": "relative to: 10 µM cyclosporin A, DMSO, negative means inhibition", "endpoint": "maximal response", "value": "-75.4%"}
{"Molecule": "CP(=O)(O)CCC(N)C(=O)O (stereo not drawn)", "organism": "Lolium perenne", "setting": "60 g/ha, 13 days, LOLPE, post-emergence spray", "scale": "relative to: untreated (0%), complete kill (100%)", "endpoint": "herbicidal activity", "value": "20%"}
{"Molecule": "TFFRLFNRSFTGRRRRSVQWCA", "organism": "Streptococcus gordonii", "assay": "OD600", "system": "peptide, ATCC 10558, 4 h single-species biofilm", "setting": "128 µg/ml, 5 min exposure, OD600 read over 5 h", "endpoint": "biofilm growth", "value": "no effect"}
{"Molecule": "insulin human", "organism": "EcoHIV", "assay": "radial arm water maze", "system": "infected C57BL/6J mice", "setting": "intranasal, dose not given, after discontinuation", "endpoint": "time to memory impairment return", "value": "≤ 24 h"}
{"Molecule": "COC(=O)[C@H](CO)NC(C)=C1C(=O)C=C2Oc3c(C(C)=O)c(O)c(C)c(O)c3[C@]2(C)C1=O", "organism": "Candida tropicalis", "assay": "broth microdilution", "system": "ATCC 750 fluconazole and amphotericin B resistant", "setting": "24 and 48 h", "endpoint": "MIC99", "value": "0.22 µM"}
{"Molecule": "CCCCCOc1c(OC)cc(NC(C)CCCN)c2nc(C(C)(C)C)ccc12 (stereo not drawn)", "organism": "Staphylococcus aureus", "assay": "microbial killing", "system": "ATCC33591 MRSA", "setting": "drug-resistant strain", "endpoint": "MBC", "value": "> 20 µg/mL"}
{"Molecule": "C=C1[C@@H](C)[C@H]2[C@H](Cc3ccccc3)NC(=O)[C@]23[C@H](OC(C)=O)/C=C/[C@](C)(O)C[C@@H](C)C/C=C/[C@H]3[C@@H]1O", "organism": "Phyllosticta citricarpa", "system": "PDA plate", "setting": "100 µL of 10 mg/mL, 21 days, methanol solution", "endpoint": "mycelial growth", "value": "0.7 ± 0.2 cm"}
{"Molecule": "CC(C)C[C@H](NC(=O)[C@H](C)NC(=O)[C@H](CC(C)C)NC(=O)[C@H](CCCCN)NC(=O)[C@H](CCCCN)NC(=O)[C@H](Cc1c[nH]c2ccccc12)NC(=O)[C@H](CC(C)C)NC(=O)[C@@H]1CCCN1C(=O)[C@H](C)NC(=O)[C@H](CC(C)C)NC(=O)[C@H](CCCCN)NC(=O)[C@H](CCCCN)NC(=O)[C@H](CC(C)C)NC(=O)[C@H](C)NC(=O)[C@H](CC(C)C)NC(=O)[C@H](C)NC(=O)[C@H](CC(C)C)NC(=O)[C@H](CCCCN)NC(=O)[C@@H](N)CCCCN)C(=O)N[C@@H](C)C(=O)N[C@@H](CC(C)C)C(=O)N[C@@H](CCCCN)C(=O)N[C@@H](CCCCN)C(=O)N[C@@H](C)C(N)=O", "organism": "Pseudomonas aeruginosa", "assay": "broth microdilution", "system": "PAO1", "setting": "overnight, 37 °C", "endpoint": "MIC50", "value": "2.14 ± 0.53 µM"}
{"Molecule": "TRTRVSRLY", "organism": "rhesus rotavirus", "system": "peptide, newborn BALB/c mice, RRV biliary atresia", "setting": "intraperitoneal, 500 µg at birth and days 1 and 2, 21 days", "endpoint": "mice with biliary atresia symptoms", "value": "21.1%"}
{"Molecule": "CC[C@H](C)CCCCC(=O)N[C@@H](CCN)C(=O)N[C@H](C(=O)N[C@@H](CCN)C(=O)N[C@H]1CCNC(=O)[C@H]([C@@H](C)O)NC(=O)[C@H](CCN)NC(=O)[C@H](CCN)NC(=O)[C@H](CC(C)C)NC(=O)[C@@H](CC(C)C)NC(=O)[C@H](CCN)NC1=O)[C@@H](C)O", "organism": "Klebsiella pneumoniae", "system": "BNCC 353393, XDR, carbapenem-resistant, compound-resistant, neutropenic mice, thigh infection", "setting": "subcutaneous, 20 mg/kg once daily", "scale": "relative to: vehicle", "endpoint": "reduction in bacterial burden", "value": "inactive"}
{"Molecule": "CCCCCCOc1c(OC)cc(NC(C)CCCNC(=O)C(N)C(C)CC)c2nc(C(C)(C)C)ccc12 (stereo not drawn)", "organism": "Staphylococcus aureus", "assay": "microbial killing", "system": "ATCC33591 MRSA", "setting": "drug-resistant strain", "endpoint": "MBC", "value": "> 20 µg/mL"}
{"Molecule": "CC(=NNC(=O)CN1c2c(-c3ccccc3)n[nH]c2-c2ccccc2S1(=O)=O)c1sccc1Cl", "organism": "HIV-1", "assay": "viral replication", "system": "PBMC", "endpoint": "EC90", "value": "61.2 µM"}
{"note": "Some of these lines once more:"}
{"Molecule": "insulin human", "organism": "EcoHIV", "assay": "radial arm water maze", "system": "infected C57BL/6J mice", "setting": "intranasal, dose not given, after discontinuation", "endpoint": "time to memory impairment return", "value": "≤ 24 h"}
{"Molecule": "CC[C@H](C)[C@H](NC(=O)[C@H](CCCCN)NC(=O)[C@H](CCC(=O)O)NC(=O)[C@H](CCCCN)NC(=O)[C@H](CO)NC(=O)[C@H](CCCCN)NC(=O)[C@H](CCCNC(=N)N)NC(=O)[C@H](Cc1ccccc1)NC(=O)[C@H](Cc1ccccc1)NC(=O)[C@H](CC(=O)O)NC(=O)CNC(=O)[C@H](CC(C)C)NC(=O)[C@@H](N)CC(C)C)C(=O)NCC(=O)N[C@@H](CCCCN)C(=O)N[C@@H](CCC(=O)O)C(=O)N[C@@H](Cc1ccccc1)C(=O)N[C@@H](CCCCN)C(=O)N[C@@H](CCCNC(=N)N)C(=O)N[C@H](C(=O)N[C@H](C(=O)N[C@@H](CCC(N)=O)C(=O)N[C@@H](CCCNC(=N)N)C(=O)N[C@H](C(=O)N[C@@H](CCCCN)C(=O)N[C@@H](CC(=O)O)C(=O)N[C@@H](Cc1ccccc1)C(=O)N[C@@H](CC(C)C)C(=O)N[C@@H](CCCNC(=N)N)C(=O)N[C@@H](CC(N)=O)C(=O)N[C@@H](CC(C)C)C(=O)N[C@H](C(=O)N1CCC[C@H]1C(=O)N[C@@H](CCCNC(=N)N)C(=O)N[C@H](C(=O)N[C@@H](CCC(=O)O)C(=O)N[C@@H](CO)C(=O)O)[C@@H](C)O)C(C)C)[C@@H](C)CC)C(C)C)[C@@H](C)CC", "organism": "Staphylococcus aureus", "system": "JE2 SAUSA300_1255 mprF transposon mutant", "setting": "12.5% TSB", "scale": "relative to: wild type over mutant", "endpoint": "MIC ratio", "value": "2 fold"}
